Results of several laboratories.
“And” joins repeats or separate records; there may be more than shown. ± marks the error that the study gave. Converted amounts (≈) assume the structure as drawn.

Compound | assay | test system | conditions | how to read | measurement | result
CC(C)NCCCC[C@@H]1NC(=O)[C@H](Cc2ccc(O)cc2)NC(=O)[C@H](Cc2ccccc2)NC(=O)CC[C@H](C(=O)N[C@@H](CCCCNC(C)C)C(=O)N[C@@H](CCCCNC(=O)[C@H](CCC(=O)O)NC(=O)[C@H](CCC(=O)O)NC(=O)[C@H](CCC(=O)O)NC(=O)CN2CCN(CC(=O)O)CCN(CC(=O)O)CCN(CC(=O)O)CC2)C(N)=O)NC(=O)CNC(=O)[C@H](Cc2ccc3ccccc3c2)NC(=O)[C@@H](CCCNC(=N)N)NC1=O [gallium-68 labelled] | – | mouse with Daudi xenograft, liver | intravenous, 2 h | – | tissue uptake | 0.54 %ID/g
CC(C)=CC[C@@H](O)C1=CC(=O)c2c(O)ccc(O)c2C1=O | – | plasma | 500 ng/mL, 3 freeze-thaw cycles at -80 °C | – | measured concentration | 482 ± 12.4 ng/mL
Cc1cccc(CNC(=O)c2cn(CCNC(=O)c3ccccc3Sc3c([N+](=O)[O-])ncn3C)c3cc4c(cc3c2=O)OC(F)(F)O4)n1 | – | Sprague-Dawley rat, male, whole blood | intramuscular, 30 mg/kg of parent drug | – | half-life | 7.4 h
CN(CC#N)C(=O)C[C@H](Nc1nc2ccccc2[nH]1)c1cccc(C(F)(F)F)c1 | – | human | intravenous infusion, 6 mg/kg, 1 mg/mL formulation | – | apparent clearance | 16.2 ± 2.72 L/h
CC[C@H](C)C(=O)O[C@H]1C[C@@H](C)C=C2C=C[C@H](C)[C@H](CC[C@@H]3C[C@@H](O)CC(=O)O3)[C@H]21 | – | dog, Beagle, both sexes, whole blood | 5 µM, 30 min | – | remaining compound | 92.3%
CS(=O)(=O)c1ccc([C@@H](O)[C@@H](CF)NC(=O)C(Cl)Cl)cc1 | – | Arbor Acres chickens, plasma | oral, 20 mg/kg, together with: saline pretreatment | – | terminal half-life | 2.14 ± 0.47 h
C=CCN1CC(=O)N2[C@@H](Cc3ccc(O)cc3F)C(=O)N(Cc3cccc(N4CC(N5CCN(CC)CC5)C4)n3)C[C@@H]2N1C(=O)NCc1ccccc1 | – | advanced solid tumour patients | oral, 20 mg twice daily, grade ≥3, dose-escalation | – | treatment-related vomiting | 0%
C=CC(=O)NC1CCN(c2ncc3ncnc(Nc4ccc(Oc5ccc6c(c5)ncn6C)c(C)c4)c3n2)CC1 | – | human, male | oral, 240 mg, treatment-emergent adverse event | – | participants with nasopharyngitis | 6.3%
CNC(=O)c1cc(Oc2ccc(NC(=O)Nc3ccc(Cl)c(C(F)(F)F)c3)cc2)ccn1 | – | NOD-SCID mouse, serum | ip, 30 mg/kg | – | ALT | 61.3 ± 54.5 U/L
COc1ccc2[nH]c([S+]([O-])Cc3ncc(C)c(OC)c3C)nc2c1 (stereo not shown) | – | healthy Chinese volunteers, plasma | oral, 20 mg, fed, CYP2C19 poor metabolizers | – | Cmax | 859 ± 735 ng/mL
O=[N+]([O-])c1cn2c(n1)OC[C@@H](OCc1ccc(N3CCOCC3)cc1)C2 | – | aqueous buffer | pH 7.4 | – | aqueous solubility | 22.2 µg/mL (≈ 61.6 µM)
CNC(=O)c1ccc(-c2cnc3ncc(Cc4ccc5ncccc5c4)n3n2)cc1F | – | Japanese patients | oral, 400 mg, any grade | – | blood ALP increased dose reduction/interruption | 1%
CNCc1ccc(-c2[nH]c3cc(F)cc4c3c2CCNC4=O)cc1 | – | human patients | oral, 600 mg twice daily, grade 1 | – | diarrhoea incidence | 15.4%
C[C@H](CCC(=O)O)[C@H]1CC[C@H]2[C@@H]3[C@H](O)C[C@@H]4C[C@H](O)CC[C@]4(C)[C@H]3CC[C@]12C | – | human, plasma | endogenous baseline diurnal | baseline: daily mean concentration | relative peak deviation | 195 ± 36%
CN(CCCN1CCN(C(=O)CN2CCN(CC(=O)[O-])CCN(CC(=O)[O-])CCN(CC(=O)[O-])CC2)CC1)c1ccc2nccc(C(=O)NCC(=O)N3CC(F)(F)C[C@H]3C#N)c2c1.[68Ga+3] | – | mice, HT-1080.hFAP and HT-1080 wild-type xenografts, blood | iv, 500 pmol, 1 h post injection | – | uptake | 0.6 ± 0.1 %IA/g
N#Cc1ccc(C(c2ccc(C#N)cc2)n2cncn2)cc1 | – | human patients, tumour tissue at surgery | 2.5 mg daily | – | tumour concentration | 23 ± 9.5 ng/g
NCc1cc2c(cc1F)C(=O)N(C1CCC(=O)NC1=O)C2 (stereo not shown) | – | male Beagle dog, whole blood | 3 h, together with: SSAO/VAP-1 inhibitor | – | remaining compound | > 95%
CCc1cc(C(=O)NC)c2nccc(N3CCc4c(cc(Cn5ccnc5)cc4-c4cn(C)nc4C(F)(F)F)C3=O)c2c1 | – | Sprague Dawley rats | oral, 100 mg/kg twice daily, 7 days | – | mean platelet volume | 7.85 ± 0.26 fL
Cc1cc(-c2nnc(N)nc2-c2ccc(F)cc2)cc(Cl)n1 | – | human, IO-naive CRC | oral, dose not given, phase Ia/Ib, any grade | – | patients with treatment-related AE | 84%
CC1CCN(CCCN2/C(=C/c3cc[n+](C)c4ccccc34)Sc3ccccc32)CC1 | – | human erythrocytes, 2% | 32 x MIC (S. aureus ATCC 29213), 1 h | – | hemolysis | < 5%

Compound | assay | test system | conditions | how to read | measurement | result
C=CC(=O)N1CCC([C@@H]2CCNc3c(C(N)=O)c(-c4ccc(Oc5ccccc5)cc4)nn32)CC1 | – | rat plasma | 800 ng/mL, 21 days, -80 °C | baseline: nominal concentration | stability relative error | 2.3%
CN(C(=O)C(C)(C)c1cc(C(F)(F)F)cc(C(F)(F)F)c1)c1cnc(N2C[C@H]3COCCN3C[C@H]2CO)cc1-c1ccc(F)cc1[14CH3] | – | healthy men, urine | oral, 120 mg, up to 480 h | baseline: dose | radioactivity excreted | 0.436%
C[C@H](CCC(=O)O[C@@H]1O[C@H](C(=O)O)[C@@H](O)[C@H](O)[C@H]1O)[C@H]1CC[C@H]2[C@@H]3[C@H](O)C[C@@H]4C[C@H](O)CC[C@]4(C)[C@H]3CC[C@]12C | – | human, plasma | endogenous baseline diurnal | baseline: daily mean concentration | relative peak deviation | 63.9 ± 16.8%
Cc1noc(C)c1-c1cc(C(O)(c2ccccn2)c2ccccn2)c2nc(C3CC3)[nH]c2c1 | – | human male patients, fasted, plasma | oral, 3 mg once daily, cycle 1 day 8 | – | Ctau | 157 ng/mL
CNC(=O)c1ccc(-c2cnc3ncc(Cc4ccc5ncccc5c4)n3n2)cc1F | – | healthy human subjects | oral, dose not given, all grades, all causality, together with: rifampicin | baseline: subjects | diarrhoea incidence | 11.5%
O=C(Cc1ccc2ccccc2c1)Nc1cc(C2CCC2)[nH]n1 | – | mouse plasma | 0.5 ng/mL, 40 days, -80 °C, long-term storage stability | – | measured mean concentration | 0.5 ± 0.03 ng/mL
CCCCC1=NC2(CCCC2)C(=O)N1Cc1ccc(-c2ccccc2S(=O)(=O)Nc2noc(C)c2C)c(COCC)c1 | – | healthy adult volunteers, plasma | oral, 200 mg, single dose, fed, crushed tablet | – | Cmax | 4950 ng/mL
COc1ncc(-c2nc3c(n2C(C)C)[C@H](c2ccc(Cl)cc2)N(c2cc(Cl)cn(C)c2=O)C3=O)c(OC)n1 | – | human patients, plasma | oral, 2 mg, cycle 1 day 1 | – | geometric mean AUC(0-last) | 169 ng·h/mL
CCn1cc(C(=O)N2CCOCC2)c(=O)c2cc(NC3Cc4ccccc4C3)cnc21 | – | human, fasted, plasma | oral, 600 mg single dose, tablet, arithmetic mean | – | AUC(0-last) | 19600 ng·h/mL
N#Cc1ccc2c(c1)[C@H]1CCCN(C(=O)c3ccc4[nH]cnc4c3)[C@H]1C2 | – | human females | 80 mg, day 15 | – | total testosterone level | 1.6 nmol/L
CCn1c(=O)c(-c2cc(NC(=O)Nc3ccccc3)c(F)cc2Br)cc2cnc(NC)cc21 | plasma protein binding, ultracentrifugation | human subjects with hepatic impairment, plasma | oral, 50 mg, 24 h post-dose | – | unbound fraction | ≤ 0.6%
O=C1CC[C@H](N2Cc3cc(N4CCN(CC5CCN(c6ccc([C@@H]7c8ccc(O)cc8CC[C@@H]7c7ccccc7)cc6)CC5)CC4)ccc3C2=O)C(=O)N1 | rapid equilibrium dialysis | human plasma | 2.5 µM, 6 h | – | unbound fraction in plasma | 0.035
C[C@@H](N)C1CCN(S(=O)(=O)c2cccc3cnccc23)CC1 | – | healthy volunteers | 250 mg, fasted | – | participants with hypotension | 16.7%
Cc1ccc([C@@H]2O[C@H](CO)[C@@H](O)[C@H](O)[C@H]2O)cc1Cc1ccc(-c2ccc(F)cc2)s1 | – | Japanese type 2 diabetes patients | 200 mg, day 3, 24 h urine collection | baseline: baseline | urinary potassium excretion change | 2.82 mEq
NC[C@@H]1O[C@H](O[C@H]2[C@@H](O)[C@H](O[C@@H]3[C@@H](O)[C@H](N)C[C@H](N)[C@H]3O[C@H]3O[C@H](CO)[C@@H](O)[C@H](O)[C@H]3N)O[C@@H]2CO)[C@H](N)[C@@H](O)[C@@H]1O | – | NSG mice | dose not given, day 8 of treatment | – | body weight | 23.3 g and 21.9 g and 20.4 g and 22.9 g
O=C(Nc1nc2cccc(-c3ccc(CN4CCS(=O)(=O)CC4)cc3)n2n1)C1CC1 | measured: arthropod sting allergy | rheumatoid arthritis patients | oral, 75 mg once daily, 4 weeks, any relatedness | – | treatment-emergent adverse events | 0%
CC(=O)N(C)C1CCN(c2cc(F)cc(NC(=O)c3cc4c(F)ccc(C)c4[nH]3)c2)C1 (stereo not shown) | – | CD1 mouse, plasma | oral, 50 mg/kg, 0.5 h | – | plasma concentration | 27.6 ng/mL
OC[C@H]1O[C@@H](c2ccc(F)c(Cc3cc4ccccc4s3)c2)[C@H](O)[C@@H](O)[C@@H]1O | – | Japanese patients, type 1 diabetes | oral, 25 mg/day, onset day 8 | baseline: patients | hypoglycaemia-related adverse event | 4%
Cc1nc(-c2ccc(OCC(C)C)c(C#N)c2)sc1C(=O)O | – | human, plasma | oral, 40 mg, together with: verinurad 5 mg | baseline: test over reference | geometric mean ratio AUC(0-24) | 93.2
C[C@@]1(c2cc(NC(=O)c3ccc(C#N)cn3)ccc2F)C=CSC(N)=N1 | – | elderly humans, both sexes, plasma | oral, 30 mg single dose | – | dose-normalised AUC(0-last) | 83.7 ng·h/mL

Excerpt of the above:
Compound | assay | test system | conditions | how to read | measurement | result
CC1CCN(CCCN2/C(=C/c3cc[n+](C)c4ccccc34)Sc3ccccc32)CC1 | – | human erythrocytes, 2% | 32 x MIC (S. aureus ATCC 29213), 1 h | – | hemolysis | < 5%
C=CC(=O)N1CCC([C@@H]2CCNc3c(C(N)=O)c(-c4ccc(Oc5ccccc5)cc4)nn32)CC1 | – | rat plasma | 800 ng/mL, 21 days, -80 °C | baseline: nominal concentration | stability relative error | 2.3%
CN(C(=O)C(C)(C)c1cc(C(F)(F)F)cc(C(F)(F)F)c1)c1cnc(N2C[C@H]3COCCN3C[C@H]2CO)cc1-c1ccc(F)cc1[14CH3] | – | healthy men, urine | oral, 120 mg, up to 480 h | baseline: dose | radioactivity excreted | 0.436%
C[C@H](CCC(=O)O[C@@H]1O[C@H](C(=O)O)[C@@H](O)[C@H](O)[C@H]1O)[C@H]1CC[C@H]2[C@@H]3[C@H](O)C[C@@H]4C[C@H](O)CC[C@]4(C)[C@H]3CC[C@]12C | – | human, plasma | endogenous baseline diurnal | baseline: daily mean concentration | relative peak deviation | 63.9 ± 16.8%
Cc1noc(C)c1-c1cc(C(O)(c2ccccn2)c2ccccn2)c2nc(C3CC3)[nH]c2c1 | – | human male patients, fasted, plasma | oral, 3 mg once daily, cycle 1 day 8 | – | Ctau | 157 ng/mL
